Assay results from different studies.
Lines come from different studies, so protocols differ.
Organism: Plasmodium falciparum

CCC1=C(C)C(c2ccc[nH]2)=NC1=CNC1CCCCCCC1
selectivity index (HepG2, D6; baseline: HepG2 IC50 over D6 IC50): 215

c1ccc2c(NCCNc3ncnc4cc(OCC5CCN(CCNc6ccnc7ccccc67)CC5)ccc34)cccc2c1
selectivity index (HepG2, NF54; baseline: HepG2 cytotoxicity over P. falciparum activity): 42

C[C@H]1[C@@H](CCCOc2ccccc2OCCC[C@H]2O[C@@H]3O[C@@]4(C)CC[C@H]5[C@H](C)CC[C@@H]([C@H]2C)[C@@]35O4)O[C@@H]2O[C@@]3(C)CC[C@H]4[C@H](C)CC[C@@H]1[C@@]24OO3
selectivity index (W2; 72 h; baseline: HepG2 over blood-stage parasites): 2.63

COc1ccc2c(c1)[n+]([O-])c(C#N)c(-c1ccco1)[n+]2[O-]
selectivity index (3D7 chloroquine-sensitive; baseline: KB IC50 over 3D7 IC50): 5.03

CN1CCC[C@@H]1C(=O)N[C@@H](Cc1ccc(-c2ccccc2)cc1)B(O)O
selectivity index (HepG2, 3D7; 72 h; baseline: HepG2 over P. falciparum): 125 fold

N#Cc1c(-c2ccco2)[n+]([O-])c2ccc(C(F)(F)F)cc2[n+]1[O-]
selectivity index (K1 chloroquine-resistant; baseline: KB IC50 over K1 IC50): 8.11

c1cncc(CCCOCCCCCCCCCCCCOC2CCCCO2)c1 (centres unmarked)
selectivity index (W2 chloroquine-resistant; baseline: IC50 WI-26VA4 over IC50 W2): 1.2

COC1=CC(c2ccc[nH]2)=NC1=CNC1CCCCCC1
selectivity index (HepG2, D6; baseline: HepG2 IC50 over D6 IC50): 439

N#Cc1c(-c2ccco2)[n+]([O-])c2ccccc2[n+]1[O-]
selectivity index (K1 chloroquine-resistant; baseline: KB IC50 over K1 IC50): 10.3

CCC1=CC(=CNC23CC4CC(CC(C4)C2)C3)N=C1c1ccc[nH]1
selectivity index (HepG2, D6; baseline: HepG2 IC50 over D6 IC50): 130

C[C@H]1[C@@H](CCCOc2ccccc2OCCC[C@H]2O[C@@H]3O[C@@]4(C)CC[C@H]5[C@H](C)CC[C@@H]([C@H]2C)[C@@]35OO4)O[C@@H]2O[C@@]3(C)CC[C@H]4[C@H](C)CC[C@@H]1[C@@]24OO3
selectivity index (W2; 72 h; baseline: HepG2 over blood-stage parasites): 9.78

CC1=CC(=CNC23CC4CC(CC(C4)C2)C3)N=C1c1ccc[nH]1
selectivity index (HepG2, D6; baseline: HepG2 IC50 over D6 IC50): 283

OCCCCCCCCCCOCCCc1cccnc1
selectivity index (W2 chloroquine-resistant; baseline: IC50 WI-26VA4 over IC50 W2): 6.7

CCC1=C(C)C(=CNC23CC4CC(CC(C4)C2)C3)N=C1c1ccc[nH]1
selectivity index (HepG2, D6; baseline: HepG2 IC50 over D6 IC50): 600

N#Cc1c(-c2ccco2)[n+]([O-])c2ccc(Cl)cc2[n+]1[O-]
selectivity index (K1 chloroquine-resistant; baseline: KB IC50 over K1 IC50): 10.2

c1cncc(CCCOCCCCCCOC2CCCCO2)c1 (centres unmarked)
selectivity index (W2 chloroquine-resistant; baseline: IC50 WI-26VA4 over IC50 W2): > 5.6

C#CCOCCCC1OC2OC3(C)CCC4C(C)CCC(C1C)C24OO3 (centres unmarked)
selectivity index (W2; 72 h; baseline: HepG2 over blood-stage parasites): > 16600

N#Cc1c(-c2ccco2)[n+]([O-])c2ccc(F)cc2[n+]1[O-]
selectivity index (3D7 chloroquine-sensitive; baseline: KB IC50 over 3D7 IC50): 7.26

CCc1c(C)[nH]c(C=NC23CC4CC(CC(C4)C2)C3)c1C
selectivity index (HepG2, D6; baseline: HepG2 IC50 over D6 IC50): 906

COc1ccc2nc3cc(Cl)ccc3c(NCCN3C(=O)c4ccc5c6c(ccc(c46)C3=O)C(=O)N(CCN(C)C)C5=O)c2c1
selectivity index (NIH3T3, 3D7; baseline: CC50 over IC50): > 4.62

CCC1=C(C)C(c2ccc[nH]2)=NC1=CNC1CCCCCC1
selectivity index (HepG2, D6; baseline: HepG2 IC50 over D6 IC50): 105

CCOC(=O)c1cn(-c2nc(C)n[nH]2)nn1
selectivity index (SYBR Green I; W2; baseline: CC50 HepG2 over IC50 W2): ≥ 3

C[C@H]1[C@@H](CCCOc2ccc(OCCC[C@H]3O[C@@H]4O[C@@]5(C)CC[C@H]6[C@H](C)CC[C@@H]([C@H]3C)[C@@]46OO5)cc2)O[C@@H]2O[C@@]3(C)CC[C@H]4[C@H](C)CC[C@@H]1[C@@]24OO3
selectivity index (W2; 72 h; baseline: HepG2 over blood-stage parasites): 6.46
